Assay results collected from several papers.
Each line is one published result; not all experiments were run side by side. ± gives the spread as reported. ≈ marks a conversion by molar mass, not a printed value.

COc1ccc(C2OC(=O)c3ccc(C(C)C)c(O)c32)cc1OC (stereo not shown) — IC50 (Naegleria fowleri; parasite growth, resazurin; 48 h): 34.9 µM
CC[C@@H](C)[C@@H](NC(=O)[C@@H](C)N)C(=O)N[C@H](CCCCN)C(=O)N[C@@H](C(=O)N[C@H](CCCNC(=N)N)C(=O)N[C@H](CCCCN)C(=O)N[C@H](CC(C)C)C(=O)N[C@H](Cc1ccccc1)C(=O)N[C@H](CCCCN)C(=O)N[C@H](CCCCN)C(=O)N[C@H](CC(C)C)C(=O)N[C@H](CC(C)C)C(=O)N[C@H](CCCNC(=N)N)C(N)=O)[C@H](C)CC — FICI (Escherichia coli; checkerboard; ATCC 25922; unit not given, together with: levofloxacin; lower = stronger synergy): 0.375
O=C(Nc1cc2nc(-c3ccccc3)cn2cn1)Oc1cccc([N+](=O)[O-])c1 — EC50 (Trypanosoma cruzi; 3T3 host cells, Tulahuen beta-galactosidase; 6 days): 9.8 µM
COc1cc(/C=C/c2cc(/C=C/c3ccc(O)c(OC)c3)n(C(N)=O)n2)ccc1O — inhibition (Spodoptera frugiperda; cell growth or viability, MTT; Sf9; 100 µM, 72 h): 75.4%
CN(C)c1cc(CNCC(N)=O)c(O)c2c1C[C@H]1C[C@H]3[C@H](N(C)C)C(O)=C(C(N)=O)C(=O)[C@@]3(O)C(O)=C1C2=O — MIC (Streptococcus pneumoniae; microbial growth, broth dilution): 2 µg/mL (≈ 3.68 µM)
COC1C=COC2(C)Oc3c(C)c(O)c4c(c3C2=O)C2=NC3(CCN(CC(C)C)CC3)NC2=C(NC(=O)C(C)=CC=CC(C)C(O)C(C)C(O)C(C)C(OC(=O)Nc2cscn2)C1C)C4=O (stereo not shown) — IC50 (Mycobacteroides abscessus; ATCC 19977; 1:1 CAMHB:human serum): 0.07 µM
C[C@H]1[C@H](C)CC[C@]2(CO)CC[C@]3(C)C(=CC[C@@H]4[C@@]5(C)CCCNC(C)(C)[C@@H]5CC[C@]43C)[C@H]12 — EC90 (Human cytomegalovirus; cytopathic effect; HFF, AD169): > 6 µM
CCc1ccc2c(c1O)C(c1ccc(OC)c(OC)c1)OC2=O (stereo not shown) — IC50 (Naegleria fowleri; parasite growth, resazurin; ATCC30808; 48 h): ≥ 318 µM
C[C@@H](c1ccn(Cc2ccc(OC(F)(F)F)cc2)n1)[C@](O)(Cn1cnnn1)c1ccc(F)cc1F — MIC (Candida tropicalis; growth, broth microdilution; 2718; 24 h, 30 °C, ≥50% inhibition): < 0.008 µg/mL
Nc1ncnc2c1c(-c1ccc(Cl)cc1)cn2[C@H]1C[C@H](O)[C@@H](CO)O1 — EC50 (Trichomonas vaginalis; resorufin; G3, metronidazole-sensitive; 24 h + 2 h, 2% O2): 0.46 ± 0.13 µM
CN[C@H](CC(C)C)C(=O)N[C@H]1C(=O)N[C@@H](CC(N)=O)C(=O)N[C@H]2C(=O)N[C@H]3C(=O)N[C@H](C(=O)N[C@H](C(=O)O)c4cc(O)cc(O)c4-c4cc3ccc4O)[C@H](O)c3ccc(c(Cl)c3)Oc3cc2cc(c3O[C@@H]2O[C@H](CO)[C@@H](O)[C@H](O)[C@H]2O[C@H]2C[C@](C)(NCc3ccc(C(=O)OCCCCCCN(Cc4ccccn4)Cc4ccccn4)cc3)[C@H](O)[C@H](C)O2)Oc2ccc(cc2Cl)[C@H]1O — regulation factor (Bacillus subtilis; protein synthesis, measured: YpuA; 168; concentration not given, 10 min, at peak effective concentration; relative to: untreated): 6.7 ± 1.95
COc1ccc(Nc2c(C#N)cnc3ccc(Cl)cc23)cc1 — IC50 (Trypanosoma cruzi; parasite growth; 72 h, epimastigote): < 1 µM
CN(C)c1cc(CNC2CCCCC2)c(O)c2c1C[C@H]1C[C@H]3[C@H](N(C)C)C(O)=C(C(N)=O)C(=O)[C@@]3(O)C(O)=C1C2=O — MIC (Streptococcus pneumoniae; microbial growth, broth dilution): 0.5 µg/mL (≈ 0.879 µM)
C=C(C)[C@@H]1CC[C@]2(C(=O)n3ccnc3)CC[C@]3(C)[C@H](CC[C@@H]4[C@@]5(C)CCCNC(C)(C)[C@@H]5CC[C@]43C)[C@@H]12 — selectivity index (Human cytomegalovirus; HFF, AD169; relative to: CC50 over EC50): < 5
CN(C)c1cc(CNC(C)(C)C)c(O)c2c1C[C@H]1C[C@H]3[C@H](N(C)C)C(O)=C(C(N)=O)C(=O)[C@@]3(O)C(O)=C1C2=O — MIC (Streptococcus pneumoniae; microbial growth, broth dilution): 2 µg/mL (≈ 3.69 µM)
CCOC(=O)c1c(-c2ccc(C)cc2)oc2ncccc12 — EC50 (Trypanosoma cruzi; 3T3 host cells, Tulahuen beta-galactosidase; 6 days): 8.6 µM
